Experimental data gathered from unrelated publications.
Every numbered part comes from another study and shows a few of its results, in no order.

Sample 1
Target: Sal-like protein 4, full length isoform B (SALL4, Homo sapiens, UniProt Q9UJQ4-2, residues 1-616)
Method: universal PBM
Molecule type: double-stranded DNA, one strand shown
Medium: in vitro
Tested at: not given
Setting: 8-mer, flanks averaged, mean of replicates
Direction: higher = stronger binding
Construct (chain): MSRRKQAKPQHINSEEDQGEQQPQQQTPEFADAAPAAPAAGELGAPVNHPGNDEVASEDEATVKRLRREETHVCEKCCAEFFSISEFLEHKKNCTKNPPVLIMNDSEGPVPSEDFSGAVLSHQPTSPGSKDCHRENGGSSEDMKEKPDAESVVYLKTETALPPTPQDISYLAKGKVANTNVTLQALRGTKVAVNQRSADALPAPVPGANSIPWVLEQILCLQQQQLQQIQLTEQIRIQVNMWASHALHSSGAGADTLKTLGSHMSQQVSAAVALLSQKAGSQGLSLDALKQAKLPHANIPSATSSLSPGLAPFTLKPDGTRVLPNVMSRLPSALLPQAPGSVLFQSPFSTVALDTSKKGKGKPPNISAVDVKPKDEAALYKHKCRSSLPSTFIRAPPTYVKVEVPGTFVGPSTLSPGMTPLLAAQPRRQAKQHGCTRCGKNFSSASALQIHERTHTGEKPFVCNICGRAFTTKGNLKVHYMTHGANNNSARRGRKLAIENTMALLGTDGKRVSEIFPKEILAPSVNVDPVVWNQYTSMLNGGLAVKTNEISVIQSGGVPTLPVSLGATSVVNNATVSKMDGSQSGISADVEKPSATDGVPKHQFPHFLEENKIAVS
Sequence | E-score
GTAACCTA | 0.258
AATTTCAA | 0.249
CATGAGGA | 0.0451
CATAGCAG | -0.00105
CAGATCGA | -0.107
GAACCGGC | -0.416
AGTCGGGA | -0.113
CCCAACCG | -0.311

Sample 2
Target: Histone acetyltransferase KAT6A, winged helix 2, GST fusion (KAT6A, Homo sapiens, UniProt Q92794, residues 85-181)
Method: protein binding microarray
Molecule type: double-stranded DNA, one strand shown
Medium: in vitro
Tested at: not given
Setting: 8-mer, flanks averaged, mean of 2 arrays, mostly near background
Reference: not given
Direction: higher = stronger binding
Target sequence (chain): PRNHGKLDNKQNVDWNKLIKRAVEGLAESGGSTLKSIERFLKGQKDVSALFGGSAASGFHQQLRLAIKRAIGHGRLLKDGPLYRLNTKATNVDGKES
Sequence | E-score
CTTGTCTC | 0.127
AGAAGTAC | -0.149
ACCCACGG | 0.141
GATGCTGC | 0.027
ATGGACGG | 0.156
ATGGCTGA | 0.0482
CTTTTCTC | 0.0551
GTTTACAA | 0.083

Sample 3
Cell line: HEK-293T/ACE2
Tested at: 10 µM
Time: 16 h
Reference: vehicle
SMILES | viability [%]
CCOc1nc2cccc(C(=O)O)c2n1Cc1ccc(-c2ccccc2-c2nnn[nH]2)cc1 | 97.4
CCc1nc(N)nc(N)c1-c1ccc(Cl)cc1 | 96.7
O=C1OC2(c3ccc(O)cc3Oc3cc(O)ccc32)c2ccccc21 | 102

Sample 4
Target: Replicase polyprotein 1ab, polymerase (rep, Severe acute respiratory syndrome coronavirus 2, UniProt P0DTD1)
Observed: enzyme activity
Mode: inhibitor
Tested at: 20 µM
Structure (SMILES) | inhibition [%]
CC(C)C[C@H](NC(=O)CN(C)C(=O)[C@H](Cc1ccccc1)NC(=O)[C@H](Cc1ccccc1)NC(=O)[C@H](CCC(N)=O)NC(=O)[C@H](CCC(N)=O)NC(=O)[C@@H]1CCCN1C(=O)[C@H](CCCCN)NC(=O)[C@@H]1CCCN1C(=O)[C@@H](N)CCCN=C(N)N)C(=O)N[C@@H](CCS(C)(=O)=O)C(N)=O | -0.27
Cc1ccc(NC(=O)CCCCCC(=O)Nc2ccccc2N)cc1 | 2.65
CO[C@H]1CC[C@H](N(c2cc(C3=CCCCC3)sc2C(=O)O)C(=O)[C@H]2CC[C@H](C)CC2)CC1 | 1.47
Cc1onc(-c2ccccc2)c1-c1ccc(S(N)(=O)=O)cc1 | -1.49
O=c1ccc2ccccc2[nH]1 | 19.9
Cc1cc(=O)n(-c2ccccc2)[nH]1 | 1.47
CNC(=O)c1cc(Oc2ccc(NC(=O)Nc3ccc(Cl)c(C(F)(F)F)c3)c(F)c2)ccn1 | -1.83
Cn1c(=O)c2[nH]c(Br)nc2n(C)c1=O | -8.36
CC(=O)Oc1cccc(C(=O)O)c1OC(C)=O | -7.31
CC(C)C[C@H](NC(=O)CNC(=O)[C@H](Cc1ccc(O)cc1)NC(=O)[C@H](CO)NC(=O)[C@H](Cc1c[nH]c2ccccc12)NC(=O)[C@H](Cc1cnc[nH]1)NC(=O)[C@@H]1CCC(=O)N1)C(=O)N[C@@H](CCCNC(=N)N)C(=O)N1CCC[C@H]1C(=O)NCC(N)=O | 25.8
CCc1cnc(N2CCC(c3nc(COc4ccc(-n5cnnn5)cc4)cs3)CC2)nc1 | -1.98
CCCCNC(=O)[C@@H]1Cc2ccccc2N1C(=O)[C@@H](N)CC | 2.78
CC1(C)[C@@H]2CC[C@@]1(C)C(=O)C2 | 1.49
COc1ccc(-c2cc(=O)c3c(O)c(OC)c(O)cc3o2)cc1OC | 24.6
N#Cc1cc(F)cc(-c2nc(-c3ccc(F)cn3)no2)c1 | -0.65
O=C(O)c1ccccc1NCCc1ccccc1 | 3.3
C[C@H](CCC(=O)O)[C@H]1CC[C@H]2[C@@H]3[C@@H](O)C[C@@H]4C[C@H](O)CC[C@]4(C)[C@H]3CC[C@]12C | 4.64
C/C(=C\C(=O)OCCCCCCCCC(=O)O)C[C@@H]1OC[C@H](C[C@@H]2O[C@H]2[C@@H](C)[C@H](C)O)[C@@H](O)[C@H]1O | 4.14
COc1ccc(COc2ccc(Cc3cnc(N)nc3N)cc2OC)cc1 | 8.62
CCCN(C/C=C/I)C1CCc2ccc(O)cc2C1 (stereo not shown) | 0.07
CN(C(=O)CN1C(=O)COc2cc(Cl)c(Cl)cc21)[C@@H](CN1CCCC1)c1ccc(-c2cccc(C(N)=O)c2)cc1 | -5.32
C#CC[C@H](c1nc2cc(Cl)ccc2c(=O)n1Nc1ccccc1)N(CCCN)C(=O)c1cccc(Cl)c1F | 4.37
COc1cc2c(cc1OC)[C@@]13CCN4CC5=CCO[C@H]6CC(=O)N2[C@H]1[C@H]6[C@H]5C[C@H]43 | 3.51
Nc1nccs1 | -5.75
O=[N+]([O-])C(Br)(CO)CO | 0.29

Sample 5
Target: Replicase polyprotein 1ab, main protease (rep, Severe acute respiratory syndrome coronavirus 2, UniProt P0DTD1)
Observed: enzyme activity
Mode: inhibitor
Tested at: 20 µM
Setting: hit confirmation, with DTT
SMILES | inhibition [%]
CNc1nc(Nc2cn(C(C)(C)C#N)nc2C)ncc1C(F)(F)F | -11.9
CCCC[C@H](NC(=O)[C@@H]1[C@@H]2[C@H](CN1C(=O)[C@@H](NC(=O)NC1(CS(=O)(=O)C(C)(C)C)CCCCC1)C(C)(C)C)C2(C)C)C(=O)C(=O)NC1CC1 | 58.9
Oc1c(I)cc(I)c(O)c1I | -18.8

Sample 6
Target: RNA binding protein fox-1 homolog 2, RRM domain, GST-SBP tag (RBFOX2, Homo sapiens, UniProt O43251-10, residues 100-194)
Method: RNA Bind-n-Seq
Molecule type: RNA
Medium: in vitro
Tested at: 365 nM
Setting: natural RNA segment, single round, ends assumed
Reference: no-protein control
Direction: higher = stronger binding
Shared flanks, not repeated: GGGAGUUCUACAGUCCGACGAUC … UGGAAUUCUCGGGUGCCAA
Target sequence (chain): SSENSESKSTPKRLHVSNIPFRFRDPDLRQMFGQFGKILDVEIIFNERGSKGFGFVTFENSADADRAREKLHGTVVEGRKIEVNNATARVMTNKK
Sequence | RBNS enrichment (R)
CUCUCUUUGCCUCCACUUUACAAAAGAUAAUAUGAUAGAGGCAACGUUUAUAACAGUCACAUUUAAUUAUAAUGUACAUCAAAGGCAGAAUUUCAGAAUGGUUUCUUAAA | 0.67
GCAAGAAAUGUGGAAAUCUGUCUGCUUGUUUACAUGGCCCGACAACACCACCUAGGCGCACGCGAGCAGAAGCCCUCUCUGUAUUACCGCUCCCUACGCAACAUACUUGA | 0.765
CGCUGGCUAUGGCCGUGCACUCCCCGUCCUGUCCACUUCUGAAACUCUUGUUCCUAACGACAACGUGGCUAUGUGCAAUGGAGACAAACUGGACUGUGAGUCUCUUGGUU | 0.339
CUCUCCAUCAGUCACAGACUCCCCCUGUUGCAAAGUGUCAGGCUGACUCGACAGUCACCGUAAAAUCUGAGUCAGUCACACACAGGCUGUCAGCCACGGCUUCCACUUGC | 0.349
AUUUUAAGGCAAAACAGUGUUUACUGUGAUGGGCAGAACAGCCUUUUGUAUCUAGGAGUCCAUUUGAGUUCUUUCCAAUAUUUCCAUAUCGUUCAUAAAUGUGUCUGGGG | 0.574
UGAUCUUGCUGCUGUAGGAAGCUUGAUAGGGCAUUUGGCUCAAAUUUCAGAAGGCCUCGCUCCUGACCUAAUUUCUCAAAGCUCCGGUAGUUCUAGACCCCUCCAAUUUC | 0.325
UUACAUGUAAAUACUUGUAUUUACCAAAGAUUUAAAUCAGUUGAUUAAUUAAUUAACUCAAAUACUGUGAACUAUCUCUAAAACACUAGAAAAAAGAAAUGUUAGUAUCU | 0.388
GGGCAGAGCUCAGGACAUUUGCCAGUUCCAGAUCUCUUUUUCAGCAUUUUCAUGGAAUUAAUUUACACGUAAUGAGGGAAGUCCUAGGAUGGAUAGAAAAAAAGCACUUA | 0.634
